Results from different studies.
Every numbered part comes from another study and shows a few of its results, in no order. Changes are numbered by the printed parent chain.

Sample 1 — technique: RNA Bind-n-Seq; molecule type: RNA; medium: in vitro; tested at: 200 nM; setting: whole 134-nt RNA, ends assumed; added: 150 mM LiCl; baseline: input library; reading: higher = stronger binding; quantity: log2 enrichment; library: 7-deaza-guanosine replaces G
Target: Ras GTPase-activating protein-binding protein 1, full length (G3BP1, Homo sapiens, UniProt Q13283)
UniProt Q13283, sequence (whole entry, looked up): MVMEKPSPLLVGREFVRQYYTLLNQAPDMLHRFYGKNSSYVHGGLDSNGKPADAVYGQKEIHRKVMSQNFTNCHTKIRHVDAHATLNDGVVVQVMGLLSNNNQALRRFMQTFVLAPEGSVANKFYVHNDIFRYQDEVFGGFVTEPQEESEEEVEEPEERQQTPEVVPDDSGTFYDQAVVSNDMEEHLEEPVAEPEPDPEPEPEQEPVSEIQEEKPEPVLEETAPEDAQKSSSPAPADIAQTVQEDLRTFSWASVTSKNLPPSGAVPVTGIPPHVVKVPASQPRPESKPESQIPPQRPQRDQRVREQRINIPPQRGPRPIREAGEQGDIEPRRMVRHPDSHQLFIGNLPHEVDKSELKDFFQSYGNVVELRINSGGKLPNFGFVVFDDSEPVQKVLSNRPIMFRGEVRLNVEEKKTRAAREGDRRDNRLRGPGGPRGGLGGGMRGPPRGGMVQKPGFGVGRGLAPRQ
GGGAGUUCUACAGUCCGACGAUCCCUGUGCUACACAUCGUAUGUACCGAAUCGGGGAAAAAAAGGGGAAAGGGGAAAAAGGGGAAAGUAUUAUGUUACGCCGUUCGGAUCUGCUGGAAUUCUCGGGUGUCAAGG: 0.835
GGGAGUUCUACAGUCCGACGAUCUAACUUUAGAGGAGGAUCUGAUGGAUAUGUCAGUGGACGUGGAUUUGGGGAUGGCUAUAAUGGGUAUGGAGGAGGACCUGGAGGUGGCAAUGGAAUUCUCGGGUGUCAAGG: 0.105
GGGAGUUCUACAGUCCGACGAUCUGGGAGGUGGAUUUUGUUUAUGUUUUUAGCUCAUUUCCAGGGGUGGGAAUUUUUUUUUAAUAUGUGUCAUGAAUAAAGUUGUUUUUGAAAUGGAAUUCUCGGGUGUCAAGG: -0.134
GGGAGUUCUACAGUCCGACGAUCUAACUUUAGAGGAGGAUCUGAUGGAUAUGGCAGUGGACGUGGAUUUGGGGAUGGCCAUAAUGGGUAUGGAGGAGGACCUGGAGGUGGCAAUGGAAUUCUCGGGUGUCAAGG: -0.294
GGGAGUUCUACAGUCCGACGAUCUGGCUGCAGGCGCACCCCGGCAGGAUUUUGCCUCCGCUGUCGCCCCCGCAGCACCGCUACUCGGAGGGCGAGCGGACCUCCCUGGAGAAGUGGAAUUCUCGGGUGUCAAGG: -1.52
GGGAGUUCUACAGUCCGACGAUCCUGUGCUACACAUCGUAUGUACCGAAUCGGGCCCCCCCGGCCCCCCCGGGGCCCCCCCGGGAAAGUAUUAUGUUACGCCGUUCGGAUCUGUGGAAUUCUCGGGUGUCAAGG: 0.425
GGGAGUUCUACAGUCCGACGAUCCUCAAGUCCUGUGCUACACAUCGUAUGUACCGAAUCGGGGCGGGCGGGGCGGGGAAAGUAUUAUGUUACGCCGUUCGGAUCUGCACUUCCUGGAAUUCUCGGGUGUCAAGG: -0.178
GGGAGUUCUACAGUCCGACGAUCACCAUGCAGGUGGGCAUCUUUAGGAAGUGGGGCAAGGGGGGGAUAGGGAGGGGGGUAACACUUUGGGAACAGGUGGUCCCAGGUCGUUUCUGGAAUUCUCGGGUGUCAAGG: 0.304

Sample 2 — technique: protein-binding microarray; molecule type: double-stranded DNA, one strand shown; medium: in vitro; tested at: 2200 nM top; setting: 60-bp whole probe; added: salmon DNA 0.4 mg/ml; baseline: random background probes; reading: higher = stronger binding; quantity: fitted relative affinity; shared flanks, not repeated: GCCTAGCAC … GTCTTGATTCGCTTGACGCTGCTG
Target: Interferon regulatory factor 7, full length, phosphomimetic (IRF7, Homo sapiens, UniProt Q92985, residues 1-503, S471D/S472D/S475D/S476D/S477D/S483D/S484D/S487D)
Target sequence (chain): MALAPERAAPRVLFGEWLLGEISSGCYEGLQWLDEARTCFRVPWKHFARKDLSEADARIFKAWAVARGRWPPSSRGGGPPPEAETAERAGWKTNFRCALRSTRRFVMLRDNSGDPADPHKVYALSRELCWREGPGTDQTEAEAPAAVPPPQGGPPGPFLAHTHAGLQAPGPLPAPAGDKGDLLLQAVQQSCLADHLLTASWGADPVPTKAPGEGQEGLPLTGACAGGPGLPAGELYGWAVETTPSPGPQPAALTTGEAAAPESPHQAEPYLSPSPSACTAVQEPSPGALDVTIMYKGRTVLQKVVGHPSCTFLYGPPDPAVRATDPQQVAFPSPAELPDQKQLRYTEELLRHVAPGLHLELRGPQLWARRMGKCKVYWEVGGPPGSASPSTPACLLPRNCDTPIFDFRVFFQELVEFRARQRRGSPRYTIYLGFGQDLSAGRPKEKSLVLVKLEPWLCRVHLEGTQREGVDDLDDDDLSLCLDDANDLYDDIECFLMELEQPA
GACCGACTGGGGTATCGGGACGTGCTA: -0.498 z-score
GACGGTCTCCGTTTCCTGACGTGCTAG: 1.61 z-score
CACAGAATCCCCTTCTACTCGTGCTAG: 1.09 z-score
TTAGGTAACGGGACTGGGTTAGTGCTA: -0.832 z-score
GGTGCTGTTTACATAGTTCTGTGCTAG: 0.786 z-score
CACGGTATCGGGTTTCGGGACGTGCTA: 1.61 z-score
TCAATTTACATTTTAGTACTGTGCTAG: 1.65 z-score
GACGGTATCGTACTGGGGACGTGCTAG: -0.0422 z-score
TTAGGACTGGGGTATCGGCTAGTGCTA: -0.615 z-score
GGCGATTTCGGGACTGGAGACGTGCTA: 0.976 z-score
GACGATCTCATACTGGAGACGTGCTAG: 0.264 z-score
TTCTTACTTTGGGATTCTGAGTGCTAG: 1.14 z-score
GACGACCTGAGTTTCGAGACGTGCTAG: 2.01 z-score
TTAGGTCTCGGTTTCTGTTAGTGCTAG: 3.49 z-score
TCAGTTTCTGGTTTATTACTGTGCTAG: 5.65 z-score
GACGGTTTCGGTTCCGGGTCGTGCTAG: 12.2 z-score
TCAACTCTGAACCTTCAGACTGTGCTA: 0.153 z-score
GAAGGACTGGACACTGGGGACGTGCTA: -0.954 z-score
GACGGACTGGACTTTAGGGACGTGCTA: -0.954 z-score

Sample 3 — target: DDIT3, bZIP domain (human); technique: DHFR protein complementation; medium: yeast; baseline: wild-type JUN-FOS pair; reading: higher = stronger binding; quantity: binding fitness
Setting: single substitutions, most at no-binding floor
Starting sequence: JUN, bZIP domain (human); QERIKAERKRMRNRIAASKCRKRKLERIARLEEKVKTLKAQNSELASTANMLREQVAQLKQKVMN; partner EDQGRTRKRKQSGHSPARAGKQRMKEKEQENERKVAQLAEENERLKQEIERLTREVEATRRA
A29V: -0.276 natural log
L31P: -1.2 natural log
E44N: -0.166 natural log
Q55V: -0.0802 natural log
A57E: 0.0811 natural log
K36I: -0.0666 natural log
L31I: -0.254 natural log
A40V: -0.0261 natural log
K34I: -0.0303 natural log
S43M: 0.0603 natural log
Q41W: -1.14 natural log
S43T: 0.144 natural log
Q55P: -1.16 natural log
A49H: -0.597 natural log
M51Q: 0.0606 natural log
A46E: 0.0645 natural log
M51N: 0.0295 natural log
Q55T: 0.0297 natural log
A49Q: -0.727 natural log
N42S: -1.06 natural log
L31Y: -0.46 natural log
A40E: 0.0788 natural log
V56C: -0.133 natural log

Sample 4 — target: CCND2, cyclin fold, Cln2 fusion (human); technique: yeast growth competition, sequencing; medium: yeast; setting: strong parent motif; baseline: not given; reading: higher = stronger binding; quantity: normalised enrichment score
Starting sequence: E2F1 docking peptide (human); PPVKRRLDFETDH
PPVKRTLDFETDH [R6T]: 0.64
PPVKRRLDFGTDH [E10G]: 2.12
PPVKRRLSFETDH [D8S]: 1.16
PPVKLRLDFETDH [R5L]: 0.206
PLVKRRLDFETDH [P2L]: 1
PPVKMRLDFETDH [R5M]: 0.371
PPVKRRLDFSTDH [E10S]: 2.1
PPVKVRLDFETDH [R5V]: 0.739
PPFKRRLDFETDH [V3F]: -0.161
PPVKRRLDFETRH [D12R]: 1.56
PPLKRRLDFETDH [V3L]: 0.507
PPVKRRLDFETNH [D12N]: 1.97
PPVKRRADFETDH [L7A]: 0.549
PPVKRRLDWETDH [F9W]: 0.386
PPVKRRLDFMTDH [E10M]: 1.32
PPVKRRLDFWTDH [E10W]: 0.272
PPVKPRLDFETDH [R5P]: 0.00132

Repeated from above (sample 4):
PPVKLRLDFETDH [R5L]: 0.206
PLVKRRLDFETDH [P2L]: 1
PPVKMRLDFETDH [R5M]: 0.371
PPVKRRLDFSTDH [E10S]: 2.1
PPVKVRLDFETDH [R5V]: 0.739
